Experimental data gathered from unrelated publications.
A part holds a random share of what one study measured.
Sequence of UniProt Q07912 (whole entry, looked up): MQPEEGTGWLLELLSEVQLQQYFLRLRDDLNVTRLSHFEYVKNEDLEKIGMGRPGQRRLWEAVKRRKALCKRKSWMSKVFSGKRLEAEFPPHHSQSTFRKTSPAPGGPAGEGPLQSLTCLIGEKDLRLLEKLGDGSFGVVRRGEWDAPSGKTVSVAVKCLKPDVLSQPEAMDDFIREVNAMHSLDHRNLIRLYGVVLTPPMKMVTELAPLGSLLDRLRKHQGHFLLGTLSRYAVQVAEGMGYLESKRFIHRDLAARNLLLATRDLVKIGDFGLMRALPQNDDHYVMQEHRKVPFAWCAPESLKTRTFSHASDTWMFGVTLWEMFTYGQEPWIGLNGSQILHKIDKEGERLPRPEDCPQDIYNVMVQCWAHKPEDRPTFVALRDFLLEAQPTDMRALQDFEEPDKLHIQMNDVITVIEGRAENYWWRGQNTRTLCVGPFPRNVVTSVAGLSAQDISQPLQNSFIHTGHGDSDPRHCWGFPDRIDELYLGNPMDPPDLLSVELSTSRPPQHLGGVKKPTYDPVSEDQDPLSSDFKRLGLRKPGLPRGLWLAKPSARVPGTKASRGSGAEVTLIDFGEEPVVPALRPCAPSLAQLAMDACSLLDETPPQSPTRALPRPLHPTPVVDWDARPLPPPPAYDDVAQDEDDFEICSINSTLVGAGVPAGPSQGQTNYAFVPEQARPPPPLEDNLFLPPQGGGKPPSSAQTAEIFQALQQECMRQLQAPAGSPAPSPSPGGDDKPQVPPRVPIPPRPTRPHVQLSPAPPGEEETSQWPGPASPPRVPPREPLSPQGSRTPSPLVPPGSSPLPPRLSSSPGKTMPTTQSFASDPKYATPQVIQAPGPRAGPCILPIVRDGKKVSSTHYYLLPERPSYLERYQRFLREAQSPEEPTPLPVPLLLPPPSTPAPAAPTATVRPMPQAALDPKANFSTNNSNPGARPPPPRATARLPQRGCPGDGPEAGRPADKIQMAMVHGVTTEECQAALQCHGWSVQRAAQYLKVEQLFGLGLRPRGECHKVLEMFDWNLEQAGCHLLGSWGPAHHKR

Series 1
Target: Interferon regulatory factor 1, DNA-binding domain (IRF1, Homo sapiens, UniProt P10914, residues 1-114)
Technique: protein-binding microarray
Molecule type: hairpin DNA
Matrix: in vitro
Tested at: not given
Notes: whole hairpin DNA, median over replicate spots
Baseline: not given
Direction: higher = stronger binding
Endpoint: median fluorescence
Constant ends, left off below: GAGGCCCGA … TCGGGCCTCACAC
Residues (chain): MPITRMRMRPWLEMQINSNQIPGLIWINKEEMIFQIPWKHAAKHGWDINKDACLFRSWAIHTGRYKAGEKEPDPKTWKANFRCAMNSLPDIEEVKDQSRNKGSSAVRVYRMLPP
AAGCTAAACGCCTCCTGGCGTTTAGCTT: 486 a.u.
AACGGAAACGCCTCCTGGCGTTTCCGTT: 562 a.u.
TAGCGAAACGCCTCCTGGCGTTTCGCTA: 641 a.u.
AAGTGAAGCGCCTCCTGGCGCTTCACTT: 556 a.u.
AAGCGCAACGCCTCCTGGCGTTGCGCTT (5mC at 15): 523 a.u.
AACTGAAACGCCTCCTGGCGTTTCAGTT: 1120 a.u.
AAGCGACACGCCTCCTGGCGTGTCGCTT: 508 a.u.
AGGCGAAACGCCTCCTGGCGTTTCGCCT: 550 a.u.

Series 2
Target: Phosphate system positive regulatory protein PHO4, full length, GST-tagged (PHO4, Saccharomyces cerevisiae, UniProt P07270, residues 1-312)
Technique: competition protein-binding microarray
Molecule type: double-stranded DNA, one strand shown
Matrix: in vitro
Tested at: 2 µM
Notes: whole 60-bp probe, lowest competitor level
Together with: Cbf1 competitor, 0.05 µM
Direction: higher = stronger binding
Endpoint: fluorescence intensity
Constant ends, left off below: … GTCTTGATTCGCTTGACGCTGCTG
Construct (chain): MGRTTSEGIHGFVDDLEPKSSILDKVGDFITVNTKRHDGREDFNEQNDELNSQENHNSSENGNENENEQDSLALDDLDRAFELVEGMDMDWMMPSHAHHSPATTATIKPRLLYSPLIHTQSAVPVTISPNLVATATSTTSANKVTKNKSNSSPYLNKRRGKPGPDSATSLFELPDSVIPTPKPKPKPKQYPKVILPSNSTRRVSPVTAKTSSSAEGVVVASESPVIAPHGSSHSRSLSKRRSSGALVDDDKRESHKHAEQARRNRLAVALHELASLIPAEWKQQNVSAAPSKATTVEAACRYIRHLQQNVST
GTCTTGTCTCATTGCCTGGTGGGTGTCCCCACTTCA: 4610 a.u.
ACACCTGGGTTTCCGCACGTGTTTCACCATCCCAAA: 18000 a.u.
TGCGCAACAACTTGGATCGTGGGTGTATGTCTAGAA: 7770 a.u.
TTAGAGCTAAGAAAGCACGTGGTTACGATAATGAGG: 19600 a.u.
AAAGTTTTCAACCTCCACGTGTTCCTTAGTTTCCCT: 21300 a.u.
CTTTCCCGATCTTGTGTGGTGGGTGTAGCACATTTG: 5770 a.u.
AAGACCGGTGCTTTGACCGTTTCCAATACGGAAAGA: 3410 a.u.
CATACCCAACCTTGGCAAGTGGGTGAAGATATTTGT: 4890 a.u.

Single results of other studies
Cc1cn(-c2cc(NC(=O)c3ccc(C)c(Nc4nccc(-c5cccnc5)n4)c3)cc(C(F)(F)F)c2)cn1  remaining activity (Activated CDC42 kinase 1 (TNK2, Homo sapiens, UniProt Q07912); kinase activity; 0.5 µM, together with: ATP 10 µM; baseline: untreated): 82.6%
CSc1cccnc1N1CCN(Cc2nc3ccccc3[nH]2)CC1  Ki (5-hydroxytryptamine receptor 1A (HTR1A, Homo sapiens, UniProt P08908); radioligand binding): 1680 nM

Repeated from above (single results of other studies):
Cc1cn(-c2cc(NC(=O)c3ccc(C)c(Nc4nccc(-c5cccnc5)n4)c3)cc(C(F)(F)F)c2)cn1  remaining activity (Activated CDC42 kinase 1 (TNK2, Homo sapiens, UniProt Q07912); kinase activity; 0.5 µM, together with: ATP 10 µM; baseline: untreated): 82.6%
